Assay results collected from several papers.
Parts stem from different laboratories: compare values within a part only. Several values in a cell are separate wells, animals, samples, runs or records. Positions count from the first letter of the parent shown.
Sequence of UniProt Q05397 (whole entry, looked up): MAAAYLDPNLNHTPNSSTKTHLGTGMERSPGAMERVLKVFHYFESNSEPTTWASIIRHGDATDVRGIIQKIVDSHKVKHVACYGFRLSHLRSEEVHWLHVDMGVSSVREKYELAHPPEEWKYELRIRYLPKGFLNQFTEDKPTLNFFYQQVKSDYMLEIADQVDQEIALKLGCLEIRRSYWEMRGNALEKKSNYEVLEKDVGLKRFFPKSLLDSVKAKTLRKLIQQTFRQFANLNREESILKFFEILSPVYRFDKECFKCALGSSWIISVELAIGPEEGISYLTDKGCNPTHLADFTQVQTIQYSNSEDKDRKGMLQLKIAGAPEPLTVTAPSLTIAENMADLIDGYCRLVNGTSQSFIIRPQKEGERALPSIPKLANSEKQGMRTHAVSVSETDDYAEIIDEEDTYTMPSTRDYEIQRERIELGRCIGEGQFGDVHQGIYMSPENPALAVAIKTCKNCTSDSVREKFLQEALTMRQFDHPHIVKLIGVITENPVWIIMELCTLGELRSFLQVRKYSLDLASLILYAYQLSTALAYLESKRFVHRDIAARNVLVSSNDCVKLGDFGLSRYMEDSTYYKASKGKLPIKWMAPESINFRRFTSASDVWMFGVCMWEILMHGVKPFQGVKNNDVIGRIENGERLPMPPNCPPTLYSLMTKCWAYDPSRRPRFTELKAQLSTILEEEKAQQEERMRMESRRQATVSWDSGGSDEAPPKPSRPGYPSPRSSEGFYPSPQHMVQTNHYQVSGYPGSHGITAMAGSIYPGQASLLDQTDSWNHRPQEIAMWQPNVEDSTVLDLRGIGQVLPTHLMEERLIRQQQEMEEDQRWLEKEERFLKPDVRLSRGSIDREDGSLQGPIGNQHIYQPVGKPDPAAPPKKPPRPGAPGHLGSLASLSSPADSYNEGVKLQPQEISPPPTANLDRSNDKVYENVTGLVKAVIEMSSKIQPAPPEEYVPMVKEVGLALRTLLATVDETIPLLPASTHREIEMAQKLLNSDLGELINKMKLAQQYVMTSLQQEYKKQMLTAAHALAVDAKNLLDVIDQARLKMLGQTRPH
Sequence of UniProt O14733 (whole entry, looked up): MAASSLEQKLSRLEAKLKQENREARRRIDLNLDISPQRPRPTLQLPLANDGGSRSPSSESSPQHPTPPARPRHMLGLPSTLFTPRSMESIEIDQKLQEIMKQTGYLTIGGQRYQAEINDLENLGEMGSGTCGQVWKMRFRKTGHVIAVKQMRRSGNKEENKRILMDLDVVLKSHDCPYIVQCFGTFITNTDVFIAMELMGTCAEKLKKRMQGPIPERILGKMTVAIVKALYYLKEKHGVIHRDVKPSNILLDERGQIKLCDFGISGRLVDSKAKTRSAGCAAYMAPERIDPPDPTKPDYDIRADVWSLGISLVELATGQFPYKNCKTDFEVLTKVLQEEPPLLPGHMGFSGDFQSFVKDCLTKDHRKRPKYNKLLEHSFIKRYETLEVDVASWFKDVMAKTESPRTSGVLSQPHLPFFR
Sequence of UniProt Q13546 (whole entry, looked up): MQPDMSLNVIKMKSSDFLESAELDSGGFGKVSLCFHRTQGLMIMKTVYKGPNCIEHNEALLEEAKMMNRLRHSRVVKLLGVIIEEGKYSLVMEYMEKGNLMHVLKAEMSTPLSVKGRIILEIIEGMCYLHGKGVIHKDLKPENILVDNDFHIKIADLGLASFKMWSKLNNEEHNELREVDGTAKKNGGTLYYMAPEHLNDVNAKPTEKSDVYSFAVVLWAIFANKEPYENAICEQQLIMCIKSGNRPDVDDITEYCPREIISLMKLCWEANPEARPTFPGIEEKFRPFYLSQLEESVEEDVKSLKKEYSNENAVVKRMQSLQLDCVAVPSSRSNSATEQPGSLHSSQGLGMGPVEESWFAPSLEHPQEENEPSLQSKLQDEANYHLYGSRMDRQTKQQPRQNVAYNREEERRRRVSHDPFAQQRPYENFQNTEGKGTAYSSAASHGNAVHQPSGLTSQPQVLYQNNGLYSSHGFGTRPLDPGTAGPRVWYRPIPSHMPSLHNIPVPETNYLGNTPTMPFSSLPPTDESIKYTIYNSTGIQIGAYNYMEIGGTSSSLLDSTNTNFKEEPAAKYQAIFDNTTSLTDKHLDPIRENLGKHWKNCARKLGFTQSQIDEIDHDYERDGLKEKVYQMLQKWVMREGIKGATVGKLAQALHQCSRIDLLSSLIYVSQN
Sequence of UniProt O15146 (whole entry, looked up): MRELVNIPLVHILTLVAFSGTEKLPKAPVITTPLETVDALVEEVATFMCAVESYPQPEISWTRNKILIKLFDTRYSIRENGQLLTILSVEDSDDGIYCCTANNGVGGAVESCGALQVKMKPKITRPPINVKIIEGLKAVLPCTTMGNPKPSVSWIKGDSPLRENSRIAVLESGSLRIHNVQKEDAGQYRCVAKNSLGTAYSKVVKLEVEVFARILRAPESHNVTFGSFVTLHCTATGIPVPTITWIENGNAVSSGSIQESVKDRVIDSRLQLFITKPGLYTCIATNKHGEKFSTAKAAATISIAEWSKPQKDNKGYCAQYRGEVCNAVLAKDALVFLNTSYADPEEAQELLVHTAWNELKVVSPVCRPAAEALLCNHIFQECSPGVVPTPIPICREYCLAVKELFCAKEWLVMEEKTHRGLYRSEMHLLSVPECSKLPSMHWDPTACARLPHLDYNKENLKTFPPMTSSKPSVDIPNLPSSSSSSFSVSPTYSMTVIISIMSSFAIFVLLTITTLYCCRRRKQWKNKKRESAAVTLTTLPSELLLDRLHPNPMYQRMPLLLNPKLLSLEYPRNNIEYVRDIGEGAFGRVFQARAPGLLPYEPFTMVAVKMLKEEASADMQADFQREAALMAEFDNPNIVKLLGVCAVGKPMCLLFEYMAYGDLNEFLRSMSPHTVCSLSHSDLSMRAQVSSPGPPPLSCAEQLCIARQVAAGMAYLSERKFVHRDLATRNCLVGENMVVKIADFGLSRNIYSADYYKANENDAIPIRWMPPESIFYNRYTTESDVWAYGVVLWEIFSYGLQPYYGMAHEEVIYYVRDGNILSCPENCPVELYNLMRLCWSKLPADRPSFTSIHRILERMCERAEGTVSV
Sequence of UniProt P78362 (whole entry, looked up): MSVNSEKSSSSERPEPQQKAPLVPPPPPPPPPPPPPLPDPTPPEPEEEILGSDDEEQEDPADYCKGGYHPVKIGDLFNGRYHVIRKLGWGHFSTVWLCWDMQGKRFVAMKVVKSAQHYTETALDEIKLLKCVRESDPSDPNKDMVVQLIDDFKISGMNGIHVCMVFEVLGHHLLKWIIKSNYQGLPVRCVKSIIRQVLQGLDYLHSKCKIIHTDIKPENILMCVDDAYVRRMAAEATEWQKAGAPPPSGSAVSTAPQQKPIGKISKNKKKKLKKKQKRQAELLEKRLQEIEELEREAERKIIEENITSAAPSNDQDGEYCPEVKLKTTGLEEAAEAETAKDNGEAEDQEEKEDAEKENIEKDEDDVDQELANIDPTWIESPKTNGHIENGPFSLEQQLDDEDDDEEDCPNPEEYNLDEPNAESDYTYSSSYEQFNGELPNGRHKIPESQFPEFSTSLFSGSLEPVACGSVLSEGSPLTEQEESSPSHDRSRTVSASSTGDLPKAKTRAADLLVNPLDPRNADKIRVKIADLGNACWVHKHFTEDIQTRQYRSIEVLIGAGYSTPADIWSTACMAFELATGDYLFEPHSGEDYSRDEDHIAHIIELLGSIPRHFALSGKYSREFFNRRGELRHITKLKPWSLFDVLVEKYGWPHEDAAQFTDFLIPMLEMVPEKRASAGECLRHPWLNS
Sequence of UniProt P53667 (whole entry, looked up): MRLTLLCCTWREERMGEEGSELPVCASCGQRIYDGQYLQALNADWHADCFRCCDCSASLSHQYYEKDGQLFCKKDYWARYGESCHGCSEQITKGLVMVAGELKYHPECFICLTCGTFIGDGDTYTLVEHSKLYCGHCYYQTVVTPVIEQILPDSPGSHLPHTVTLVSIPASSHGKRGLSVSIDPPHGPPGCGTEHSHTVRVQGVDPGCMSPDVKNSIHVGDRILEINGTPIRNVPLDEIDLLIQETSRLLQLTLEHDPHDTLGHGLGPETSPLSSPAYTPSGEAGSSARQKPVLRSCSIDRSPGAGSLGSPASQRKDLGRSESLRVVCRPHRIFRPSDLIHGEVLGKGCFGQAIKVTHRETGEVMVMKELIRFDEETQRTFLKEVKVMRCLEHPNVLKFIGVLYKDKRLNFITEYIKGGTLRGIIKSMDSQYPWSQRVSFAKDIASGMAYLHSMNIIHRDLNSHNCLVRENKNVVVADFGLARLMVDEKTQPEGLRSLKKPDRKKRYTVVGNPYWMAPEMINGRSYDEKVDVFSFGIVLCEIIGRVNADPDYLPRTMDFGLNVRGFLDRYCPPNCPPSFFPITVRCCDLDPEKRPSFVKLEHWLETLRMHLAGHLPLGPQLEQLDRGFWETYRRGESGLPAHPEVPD

Block 1
Compound: Cn1cncc1[C@@](O)(COc1ccc(C#N)cc1-c1ccc(OC(F)(F)F)cc1)c1ccc(C#N)cc1
Read-out: cell-free assay
Technique: competition with immobilised ligand
Concentration: 1 µM
ALK tyrosine kinase receptor (ALK, Homo sapiens, UniProt Q9UM73) — remaining binding: 70%.
The remaining binding was 100% (Muscle, skeletal receptor tyrosine-protein kinase (MUSK, Homo sapiens, UniProt O15146)).
It gave 100% for remaining binding (Insulin-like growth factor 1 receptor (IGF1R, Homo sapiens, UniProt P08069)).
For Serine/threonine-protein kinase ULK2 (ULK2, Homo sapiens, UniProt Q8IYT8): remaining binding read 100%.
The remaining binding was 97% (Focal adhesion kinase 1 (PTK2, Homo sapiens, UniProt Q05397)).
SRSF protein kinase 2 (SRPK2, Homo sapiens, UniProt P78362) — remaining binding: 55%.
It gave 100% for remaining binding (Phosphatidylinositol 4,5-bisphosphate 3-kinase catalytic subunit alpha isoform (PIK3CA, Homo sapiens, UniProt P42336, H1047Y)).
Dual specificity mitogen-activated protein kinase kinase 7 (MAP2K7, Homo sapiens, UniProt O14733) — remaining binding: 96%.
For Mitotic checkpoint serine/threonine-protein kinase BUB1 (BUB1, Homo sapiens, UniProt O43683): remaining binding read 98%.
For Receptor-interacting serine/threonine-protein kinase 1 (RIPK1, Homo sapiens, UniProt Q13546): remaining binding read 90%.
It gave 100% for remaining binding (LIM domain kinase 1 (LIMK1, Homo sapiens, UniProt P53667)).
For SNF-related serine/threonine-protein kinase (SNRK, Homo sapiens, UniProt Q9NRH2): remaining binding read 87%.
The remaining binding was 92% (Mitogen-activated protein kinase kinase kinase 14 (MAP3K14, Homo sapiens, UniProt Q99558)).

Block 2
Compound: CNC(=O)c1ccc(-c2cnn3ccc(C(=O)N(C)c4ccc(Cl)c(C(=O)OC)c4)cc23)cc1
Organism: Cryptosporidium parvum
Technique: time-kill
Strain: nanoluciferase-expressing
Reference: DMSO
3 nM, 8 h — luminescence: 84.2% and 88.3%.
For 9 nM, 0 h: luminescence read 91.4% and 98% and 90.3% and 103% and 99.4% and 97.4% and 90.1% and 91.2%.
The luminescence was 88.6% and 118% (3 nM, 4 h).

Block 3
Target: tungstate, free oxyanion
Technique: microfluidic competitive inhibition
Sample: in vitro, cell-free expressed
Concentration: not given
Notes: derived from inhibition constants, unchanged parent 2230 nM
Reading: lower = stronger binding
Starting sequence: PafA, mature enzyme, eGFP fusion (Elizabethkingia meningoseptica, UniProt Q9KJX5); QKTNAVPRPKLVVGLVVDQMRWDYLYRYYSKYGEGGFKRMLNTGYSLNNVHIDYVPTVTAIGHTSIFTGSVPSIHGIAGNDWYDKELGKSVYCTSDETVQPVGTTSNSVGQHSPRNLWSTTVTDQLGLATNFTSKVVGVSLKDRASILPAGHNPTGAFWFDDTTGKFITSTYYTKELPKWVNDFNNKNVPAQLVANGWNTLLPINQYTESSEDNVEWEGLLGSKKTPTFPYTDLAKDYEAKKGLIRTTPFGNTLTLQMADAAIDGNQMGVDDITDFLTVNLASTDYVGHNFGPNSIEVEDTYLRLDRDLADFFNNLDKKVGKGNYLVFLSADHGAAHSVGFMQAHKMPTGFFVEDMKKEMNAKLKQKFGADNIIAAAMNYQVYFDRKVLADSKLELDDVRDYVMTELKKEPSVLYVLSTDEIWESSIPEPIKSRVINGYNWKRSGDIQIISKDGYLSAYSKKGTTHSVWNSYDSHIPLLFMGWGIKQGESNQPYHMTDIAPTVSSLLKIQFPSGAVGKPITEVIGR
Under “oxyanion analog dissociation constant”, `M20V` is recorded as 2.52 µM.
For `D183V`, “oxyanion analog dissociation constant” read 2.7 µM.
Under “oxyanion analog dissociation constant”, `D81G` is recorded as 3.37 µM.
`V137G`: “oxyanion analog dissociation constant” 1.25 µM.
Under “oxyanion analog dissociation constant”, `V6A` is recorded as 2 µM.
`M268G`: “oxyanion analog dissociation constant” 1.24 µM.
`D498G` — result for “oxyanion analog dissociation constant”: 1.78 µM.
For `S65G`, “oxyanion analog dissociation constant” read 3.06 µM.

Block 4
Target: CCNA2, cyclin fold, Cln2 fusion (human)
Technique: yeast growth competition, sequencing
Sample: yeast
Notes: strong parent motif
Reference: not given
Reading: higher = stronger binding
Starting sequence: viral docking peptide; KKAKRRLFTISDS
Under “normalised enrichment score”, `KKAKRRLFTASDS [I10A]` is recorded as 5.27.
For `KKAKKRLFTISDS [R5K]`, “normalised enrichment score” read 3.64.
`KKAKRRLLTISDS [F8L]`: “normalised enrichment score” 1.39.
For `AKAKRRLFTISDS [K1A]`, “normalised enrichment score” read 4.65.
`KKAKARLFTISDS [R5A]`: “normalised enrichment score” 2.35.
Under “normalised enrichment score”, `KKAARRLFTISDS [K4A]` is recorded as 3.27.
`KKAKRALFTISDS [R6A]` — result for “normalised enrichment score”: 4.86.
For `KKAKRRLFAISDS [T9A]`, “normalised enrichment score” read 5.17.
